Results pooled from the literature.
Numbered parts are unrelated; each lists some results of a single study. Positions count from the first letter of the parent shown.

Set 1
Target: FOXO3, forkhead domain (mouse, UniProt Q9WVH4, residues 31-263)
Chain of UniProt Q9WVH4 (31-263, looked up): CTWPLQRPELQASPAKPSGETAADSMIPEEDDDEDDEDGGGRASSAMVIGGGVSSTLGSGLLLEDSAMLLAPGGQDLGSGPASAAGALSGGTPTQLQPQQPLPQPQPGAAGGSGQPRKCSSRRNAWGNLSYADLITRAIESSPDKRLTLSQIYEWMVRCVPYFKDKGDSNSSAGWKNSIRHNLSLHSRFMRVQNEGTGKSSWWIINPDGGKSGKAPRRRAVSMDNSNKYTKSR
Technique: protein-binding microarray
Form: hairpin DNA
Medium: in vitro
Tested at: not given
Notes: whole hairpin DNA, median over replicate spots
Reference: not given
Reading: higher = stronger binding
Constant ends, left off below: GAGGCCA … TGGCCTCACACTC
| Sequence | median fluorescence [a.u.] |
| --- | --- |
| TGTGAACAACGCCTCCTGGCGTTGTTCACA (5mC at 34) | 4160 |
| TCTAACCAACGCCTCCTGGCGTTGGTTAGA (5mC at 9) | 3930 |
| TGTAACCGACGCCTCCTGGCGTCGGTTACA | 4290 |
| TGTAAACTACGCCTCCTGGCGTAGTTTACA | 4020 |
| TTTAACCAACGCCTCCTGGCGTTGGTTAAA | 3520 |
| TGCGAACAACGCCTCCTGGCGTTGTTCGCA (5mC at 34) | 4470 |
| TGTAACTAACGCCTCCTGGCGTTAGTTACA | 3550 |
| TCGAACCAACGCCTCCTGGCGTTGGTTCGA (5mC at 35) | 4290 |
| TGTAACCAACGCCTCCTGGCGTTGGTTACA | 4020 |
| CGTAACCAACGCCTCCTGGCGTTGGTTACG | 4450 |
| TGCAAACTACGCCTCCTGGCGTAGTTTGCA | 4320 |
| TGCAACCAACGCCTCCTGGCGTTGGTTGCA (5mC at 10) | 4520 |
| TGTAACAAACGCCTCCTGGCGTTTGTTACA | 3860 |

Set 2
Target: Centromere-binding protein 1, full length, N-terminal tag (CBF1, Saccharomyces cerevisiae, UniProt P17106, residues 1-351)
Chain of UniProt P17106 (whole entry, looked up): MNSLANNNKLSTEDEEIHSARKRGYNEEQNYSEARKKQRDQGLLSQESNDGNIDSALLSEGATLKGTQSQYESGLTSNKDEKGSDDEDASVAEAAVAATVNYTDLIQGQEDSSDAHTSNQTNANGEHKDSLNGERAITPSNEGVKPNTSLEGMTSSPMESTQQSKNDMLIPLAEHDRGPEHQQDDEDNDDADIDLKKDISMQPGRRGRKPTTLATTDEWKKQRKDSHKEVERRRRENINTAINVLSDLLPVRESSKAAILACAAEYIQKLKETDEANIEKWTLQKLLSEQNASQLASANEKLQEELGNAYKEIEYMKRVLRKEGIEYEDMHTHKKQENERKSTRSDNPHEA
Technique: protein-binding microarray
Form: double-stranded DNA, one strand shown
Medium: in vitro
Tested at: 0.8 µM
Notes: whole 60-bp probe, no competitor
Reading: higher = stronger binding
Constant ends, left off below: … GTCTTGATTCGCTTGACGCTGCTG
| Sequence | fluorescence intensity |
| --- | --- |
| GAACACAATATACGTGATTTTAGAATAGAGTATTAG | 613 a.u. |
| CTATGCTCGTATTTTCACCTCACTTCTCTTTCTTTC | 522 a.u. |
| GAAAATAGAGAAAAGCACACGTTAATTATATCATAG | 517 a.u. |
| GAATCATTAGCGCCTCATGTGAGCAGGCCATTGTAG | 637 a.u. |
| CCTAACTACTATACGCACGTGCCATAGCTTCGTACA | 11500 a.u. |
| CTATCGTTTGTAGCCGACGTGCTTCATTTATCATTC | 574 a.u. |
| GAACCCCGTATCCCGCACGTTGTTAAGTTAAACTAG | 603 a.u. |
| GAATTTGCCAATAATCCTCACATGGTGGAGCTATAG | 667 a.u. |
| GAATTTCGGCGAGCCCTCGTGTTGCTATGGTAATAG | 548 a.u. |
| CTAATGAGATAGATACATGCGTGGGTCAATTGCTTC | 537 a.u. |
| CTAAATATTTTACTTCACGTTATATTCTTTTTTTTC | 599 a.u. |
| GAAGCATGCGGCTGATGTCAGATTTCGAACATTTAG | 541 a.u. |

Set 3
Target: Histone acetyltransferase KAT6A, winged helix 1, GST fusion (KAT6A, Homo sapiens, UniProt Q92794, residues 1-85)
Technique: protein binding microarray
Form: double-stranded DNA, one strand shown
Medium: in vitro
Tested at: not given
Notes: 8-mer, flanks averaged, mean of 2 arrays, mostly near background
Reference: not given
Reading: higher = stronger binding
Construct (chain): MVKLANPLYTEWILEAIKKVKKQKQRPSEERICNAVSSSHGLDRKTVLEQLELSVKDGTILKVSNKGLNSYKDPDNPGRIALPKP
| Sequence | E-score |
| --- | --- |
| AAGTGTCA | -0.321 |
| AAACAGAC | -0.117 |
| AGAAAGTA | -0.133 |
| CATATCCG | 0.115 |
| TGAAGACA | -0.165 |
| CAAGCCAG | -0.326 |
| ATGGGCTG | -0.12 |
| ACTTCGCA | -0.0714 |
| GGTGCCAA | -0.25 |
| ACCATACC | -0.0368 |
| CCAACGCG | 0.33 |
| GACGCATC | 0.176 |
| AATAATCG | -0.185 |
| ACTATCTC | -0.0657 |
| TGGATCAA | -0.272 |
| AACGTTAA | 0.112 |
| CTCATCGA | -0.199 |

Set 4
Target: Ras GTPase-activating protein-binding protein 1, full length (G3BP1, Homo sapiens, UniProt Q13283)
Chain of UniProt Q13283 (whole entry, looked up): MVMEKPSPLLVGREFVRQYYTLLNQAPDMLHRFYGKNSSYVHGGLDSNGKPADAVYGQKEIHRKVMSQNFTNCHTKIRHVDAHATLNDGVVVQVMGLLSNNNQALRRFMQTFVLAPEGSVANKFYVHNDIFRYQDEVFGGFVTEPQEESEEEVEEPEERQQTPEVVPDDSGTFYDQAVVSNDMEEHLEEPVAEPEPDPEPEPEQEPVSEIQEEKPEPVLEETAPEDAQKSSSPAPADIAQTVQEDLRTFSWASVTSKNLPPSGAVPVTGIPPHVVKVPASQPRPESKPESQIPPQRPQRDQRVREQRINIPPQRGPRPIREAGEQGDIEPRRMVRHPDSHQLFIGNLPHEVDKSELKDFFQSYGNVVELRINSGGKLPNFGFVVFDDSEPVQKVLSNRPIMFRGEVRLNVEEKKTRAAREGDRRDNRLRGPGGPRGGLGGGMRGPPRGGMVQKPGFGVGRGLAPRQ
Technique: RNA Bind-n-Seq
Form: RNA
Medium: in vitro
Tested at: 200 nM
Notes: whole 134-nt RNA, ends assumed
With: 150 mM LiCl
Reference: input library
Reading: higher = stronger binding
All molecules: 7-deaza-guanosine replaces G
| Sequence | log2 enrichment |
| --- | --- |
| GGGAGUUCUACAGUCCGACGAUCACCAUGCAGGUGGGCAUCUUUGGGAAGUGGGGCAAGGGGGGGAUAGGGAGGGGGGUAACCCUUUGGGAACAGGUGGUCCCAGGUCGUUUCUGGAAUUCUCGGGUGUCAAGG | 0.176 |
| GGGAGUUCUACAGUCCGACGAUCAAGUCCUGUGCUACACAUCGUAUGUACCGAAUCAAAUUUAAAUUUAAAUUUUUAAAAAAGUAUUAUGUUACGCCGUUCGGAUCUGCACUUUGGAAUUCUCGGGUGUCAAGG | -2.34 |
| GGGAGUUCUACAGUCCGACGAUCUCCUGUGCUACACAUCGUAUGUACCGAAUCAAACCCCCCCAAACCCCCAAACCCCCAAAAAAGUAUUAUGUUACGCCGUUCGGAUCUGCAUGGAAUUCUCGGGUGUCAAGG | 0.0838 |
| GGGAGUUCUACAGUCCGACGAUCCACAGACAACACGCACCCACACAGGCACAGAGGGAAGGGGUUGGGAUGGGGACAGGGUGCACAGCAGGGCGGGGUAGGACCCCAGCCCCUUGGAAUUCUCGGGUGUCAAGG | 1 |

Set 5
Target: Sal-like protein 4, full length isoform B (SALL4, Homo sapiens, UniProt Q9UJQ4-2, residues 1-616)
Technique: universal PBM
Form: double-stranded DNA, one strand shown
Medium: in vitro
Tested at: not given
Notes: 8-mer, flanks averaged, mean of replicates
Reading: higher = stronger binding
Target sequence (chain): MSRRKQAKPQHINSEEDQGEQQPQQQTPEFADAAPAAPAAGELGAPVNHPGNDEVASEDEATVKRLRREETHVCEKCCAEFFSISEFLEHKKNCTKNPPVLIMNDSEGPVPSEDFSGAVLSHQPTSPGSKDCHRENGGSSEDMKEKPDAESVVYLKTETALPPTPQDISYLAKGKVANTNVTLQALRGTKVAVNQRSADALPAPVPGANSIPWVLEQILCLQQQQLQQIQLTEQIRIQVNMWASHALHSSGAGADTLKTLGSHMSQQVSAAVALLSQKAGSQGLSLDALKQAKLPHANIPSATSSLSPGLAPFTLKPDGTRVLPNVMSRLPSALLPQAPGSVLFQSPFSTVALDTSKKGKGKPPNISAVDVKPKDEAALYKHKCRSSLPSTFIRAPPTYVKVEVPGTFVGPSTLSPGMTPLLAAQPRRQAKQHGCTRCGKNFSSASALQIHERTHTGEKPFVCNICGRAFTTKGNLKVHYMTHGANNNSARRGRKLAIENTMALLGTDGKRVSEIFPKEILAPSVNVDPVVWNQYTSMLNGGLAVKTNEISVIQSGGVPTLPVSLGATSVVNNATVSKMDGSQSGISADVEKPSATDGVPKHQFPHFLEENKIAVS
| Sequence | E-score |
| --- | --- |
| CTGCCGGA | -0.221 |
| AATAAATT | 0.406 |
| AACTGTGG | -0.106 |
| AAAGTGAA | 0.176 |
| GTTCGAAC | -0.0125 |
| GGAGGAGA | -0.141 |
| AATTTCGT | 0.271 |
| ACATCCTG | 0.183 |
| CTATCCAG | -0.0517 |
| ATAGAGCC | -0.0952 |
| AGACGGGA | -0.173 |
| GTGCTAGA | 0.0315 |
| ACCTTCCG | -0.113 |
| ACATCATG | 0.0122 |
| CACGGTTC | -0.211 |
| CACTAACA | 0.0813 |
| CTCTCCAC | -0.0311 |
| GAAGACTC | -0.0961 |
| AACTCCTC | 0.0509 |

Set 6
Target: Interferon regulatory factor 7, full length, phosphomimetic (IRF7, Homo sapiens, UniProt Q92985, residues 1-503, S471D/S472D/S475D/S476D/S477D/S483D/S484D/S487D)
Chain of UniProt Q92985 (whole entry, unmodified, looked up): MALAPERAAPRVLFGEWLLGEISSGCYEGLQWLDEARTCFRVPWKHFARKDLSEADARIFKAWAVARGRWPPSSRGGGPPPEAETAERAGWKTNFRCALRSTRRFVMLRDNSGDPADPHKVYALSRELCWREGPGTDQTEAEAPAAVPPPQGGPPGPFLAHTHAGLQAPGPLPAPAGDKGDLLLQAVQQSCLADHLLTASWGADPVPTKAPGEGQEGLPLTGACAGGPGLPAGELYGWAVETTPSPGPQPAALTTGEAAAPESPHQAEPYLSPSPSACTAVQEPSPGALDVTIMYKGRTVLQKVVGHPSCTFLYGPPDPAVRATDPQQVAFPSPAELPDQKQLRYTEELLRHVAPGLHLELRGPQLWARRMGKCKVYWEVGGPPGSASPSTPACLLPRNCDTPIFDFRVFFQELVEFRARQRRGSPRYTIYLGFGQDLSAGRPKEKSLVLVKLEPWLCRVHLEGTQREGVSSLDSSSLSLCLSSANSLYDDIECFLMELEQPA
Technique: protein-binding microarray
Form: double-stranded DNA, one strand shown
Medium: in vitro
Tested at: 2200 nM top
Notes: 60-bp whole probe
With: salmon DNA 0.4 mg/ml
Reference: random background probes
Reading: higher = stronger binding
Constant ends, left off below: GCCTAGCAC … GTCTTGATTCGCTTGACGCTGCTG
| Sequence | fitted relative affinity [z-score] |
| --- | --- |
| GACCGTTCCCTTTTCCTGACGTGCTAG | 2.54 |
| TTAGGTAACGGTATCGGTTAGTGCTAG | 0.114 |
| TCAGGACTGGGTCTCGGTTAGTGCTAG | -0.296 |
| GACGGACTGGGGTATAGGGACGTGCTA | -0.857 |
| TTAGGTATCGGGCTGGGTTAGTGCTAG | -0.145 |
| TTAGGTCCCGGTCTCGGTTAGTGCTAG | 0.432 |
| TTCGGTATCCTTTTCCTTTAGTGCTAG | 2.85 |
| TCACCTATGTCATTTACACTGTGCTAG | 1.81 |
| GACGGTTTCGGGAATGGGGACGTGCTA | 2.87 |
| TTATAACTGGGGACTGGATTAGTGCTA | -0.0142 |
| TTAGGTTTCCTTTCCCTCTAGTGCTAG | 4 |
| TTAGGTATCCGTTTCGGTTAGTGCTAG | 3.84 |
| TCATCCCTTTCTCTCTGACTGTGCTAG | 2.81 |
| TTAGGTATCGACTATCGGATAGTGCTA | 0.338 |
| GACGGTATCCTTTTGCTGACGTGCTAG | 1.09 |
| TCAGCTCTGCGGTTCAGACTGTGCTAG | 0.149 |
| GACGGACTGCGGTTTCGGGACGTGCTA | 1.97 |
| TCATTTATACCTTAGGTACTGTGCTAG | 0.765 |
| GACGAACTCAGTATCGAGACGTGCTAG | -0.168 |
| TCATTTTACTTTCTATGACTGTGCTAG | 3.71 |
| TCAGCTTTTTTTTTTTTACTGTGCTAG | 0.979 |
| TAAATTTTCACGGTGGGTTCGTGCTAG | 0.384 |
| TTGCTTCCCAATTCTCTTTTCGTGCTA | 2.49 |
| TCAATCCTATATCTGAAACTGTGCTAG | 0.6 |

Set 7
Target: CCNA1, cyclin fold, Cln2 fusion (human)
Technique: yeast growth competition, sequencing
Medium: yeast
Notes: weak parent motif
Reference: not given
Reading: higher = stronger binding
Starting sequence: WEE1 docking peptide (human); HKTFRKLRLFDTP
| Variant | normalised enrichment score |
| --- | --- |
| P13M | 0.514 |
| P13H | -0.146 |
| K6Y | 0.21 |
| P13N | 0.397 |
| T12F | 0.222 |
| L9G | 0.118 |
| H1C | 0.536 |
| L9H | 0.066 |
| D11S | -0.154 |
| P13E | -0.108 |
| L7Y | 0.418 |
| T12M | 0.608 |
| T3K | -0.0681 |

Repeated from above (set 3):
| Sequence | E-score |
| --- | --- |
| AAACAGAC | -0.117 |
| AGAAAGTA | -0.133 |
| CATATCCG | 0.115 |
| TGAAGACA | -0.165 |
| CAAGCCAG | -0.326 |
| ATGGGCTG | -0.12 |
| ACTTCGCA | -0.0714 |
| GGTGCCAA | -0.25 |
| ACCATACC | -0.0368 |
| CCAACGCG | 0.33 |
| GACGCATC | 0.176 |
| AATAATCG | -0.185 |
| ACTATCTC | -0.0657 |
| TGGATCAA | -0.272 |
| AACGTTAA | 0.112 |
| CTCATCGA | -0.199 |
